Experimental data pooled from the literature.
Each line is one published result; not all experiments were run side by side.
Cell line: ACHN

With O=C1NCCc2[nH]c(-c3ccncc3)cc21 the IC50 was over 10 µM (MTS; NCI60 panel).
With CSc1nc(-c2ccc(Cl)cc2)c2c(NC(=O)c3ccccc3)nnc-2[nH]1 the cell growth was 95.2% (SRB; 10 µM, NCI60 single-dose screen; reference: untreated).
With CCCCN1CCN(c2ccc3[nH]c(-c4ccc5[nH]c(-c6ccc(OCC)cc6)nc5c4)nc3c2)CC1 the growth percent was 63.9% (SRB; 10 µM, 48 h).
The EC50 of CCn1cc(-c2cc(Cn3ccoc3=N)cc3c2CCN([C@@H](C)c2cc(OC)ccn2)C3=O)c(C(F)(F)F)n1 is reported as 9.63 µM (cell growth, inhibitor; 120 h).
The log10 TGI of Cc1cc(C)n(C(=S)[S][Au][PH](CCCCCC[PH]([Au][S]C(=S)n2nc(C)cc2C)(c2ccccc2)c2ccccc2)(c2ccccc2)c2ccccc2)n1 is reported as over -4 (cell growth, NCI-60 screen; renal cancer).
CCCC(CCC)C(=O)OCc1cn(-c2c3ccccc3nc3ccccc23)nn1 gave a growth percentage of 100% (NCI60 single-dose screen; 10 µM).
C#C[C@@]1(O)[C@@H](CO)O[C@@H](n2cc(I)c3c(N)ncnc32)[C@@H]1O gave a TGI of over 100 µM (SRB; NCI-60 screen).
CCOc1ccc(-c2nc3cc(-c4nc5cc(N6CCN(C)CC6)ccc5[nH]4)ccc3[nH]2)cc1OCC has a growth percent of 81.9% (SRB; 10 µM, 48 h).
O=C1NC(c2ccccc2)(c2ccccc2)C(=O)N1Cc1cn(-c2cc3ccccc3oc2=O)nn1 gave a growth percentage of 92.7% (NCI60 single-dose screen; 10 µM).
For O=C(Nc1nnc2[nH]c(=S)[nH]c(-c3ccc(Cl)cc3)c1-2)c1ccccc1, the cell growth was 96.7% (SRB; 10 µM, NCI60 single-dose screen; reference: untreated).
With O=C1NC(c2ccccc2)(c2ccccc2)C(=O)N1Cc1cn(-c2c3ccccc3nc3ccccc23)nn1 the growth percentage was 81.5% (NCI60 single-dose screen; 10 µM).
With CCCN1CCN(c2ccc3[nH]c(-c4ccc5[nH]c(-c6cc(OC)c(OC)c(OC)c6)nc5c4)nc3c2)CC1 the growth percent was 96.4% (SRB; 10 µM, 48 h).
With COC(=O)/C=C1\C(=O)C=C2C3CC4CC(CCC4(C)N21)C3(C)NC(C)=O (stereo not shown) the IC50 was 20.2 µM (cell growth; NCI screen).
The growth percent of CCCN1CCN(c2ccc3[nH]c(-c4ccc5[nH]c(-c6ccc(OCC)c(OCC)c6)nc5c4)nc3c2)CC1 is reported as -28.9% (SRB; 10 µM, 48 h).
For O=C(Nc1nnc2n3c(nc(-c4ccc(Cl)cc4)c1-2)SCC3=O)c1ccccc1, the cell growth was 98.7% (SRB; 10 µM, NCI60 single-dose screen; reference: untreated).
With O=c1ccn(Cc2cn(-c3cc4ccccc4oc3=O)nn2)c(=O)[nH]1 the growth percentage was 99.8% (NCI60 single-dose screen; 10 µM).
For CCCN1CCN(c2ccc3[nH]c(-c4ccc5[nH]c(-c6ccc(C(F)(F)F)cc6)nc5c4)nc3c2)CC1, the growth percent was -99.9% (SRB; 10 µM, 48 h).
CCOC(=O)CSc1nc(-c2ccc(Cl)cc2)c2c(NC(=O)c3ccccc3)nnc-2[nH]1 has a cell growth of 101% (SRB; 10 µM, NCI60 single-dose screen; reference: untreated).
The TGI of Cn1cncc1C1=CN(c2ncnc3[nH]cnc23)CCS1 is reported as 170 µM (renal cancer).
O=C(Nc1nnc2n3c(Cc4ccccc4)n[nH]c3nc(-c3ccc(Cl)cc3)c1-2)c1ccccc1 gave a cell growth of 104% (SRB; 10 µM, NCI60 single-dose screen; reference: untreated).
With CCCN1CCN(c2ccc3nc(-c4ccc5nc(-c6cc(OC)ccc6OC)[nH]c5c4)[nH]c3c2)CC1 the growth percent was 106% (SRB; 10 µM, 48 h).
COc1cnc2cccc(N3CCc4c(cc(Cn5ccnc5C)cc4-c4cn(C)nc4C(F)(F)F)C3=O)c2c1 has an EC50 of 8.68 µM (cell growth, inhibitor; 120 h).

Some of these lines once more:
With CCCN1CCN(c2ccc3[nH]c(-c4ccc5[nH]c(-c6cc(OC)c(OC)c(OC)c6)nc5c4)nc3c2)CC1 the growth percent was 96.4% (SRB; 10 µM, 48 h).
